Assay results collected from several papers.
Numbered parts are unrelated; each lists some results of a single study. Several values in a cell are separate wells, animals, samples, runs or records.
Sequence of UniProt O75116 (whole entry, looked up): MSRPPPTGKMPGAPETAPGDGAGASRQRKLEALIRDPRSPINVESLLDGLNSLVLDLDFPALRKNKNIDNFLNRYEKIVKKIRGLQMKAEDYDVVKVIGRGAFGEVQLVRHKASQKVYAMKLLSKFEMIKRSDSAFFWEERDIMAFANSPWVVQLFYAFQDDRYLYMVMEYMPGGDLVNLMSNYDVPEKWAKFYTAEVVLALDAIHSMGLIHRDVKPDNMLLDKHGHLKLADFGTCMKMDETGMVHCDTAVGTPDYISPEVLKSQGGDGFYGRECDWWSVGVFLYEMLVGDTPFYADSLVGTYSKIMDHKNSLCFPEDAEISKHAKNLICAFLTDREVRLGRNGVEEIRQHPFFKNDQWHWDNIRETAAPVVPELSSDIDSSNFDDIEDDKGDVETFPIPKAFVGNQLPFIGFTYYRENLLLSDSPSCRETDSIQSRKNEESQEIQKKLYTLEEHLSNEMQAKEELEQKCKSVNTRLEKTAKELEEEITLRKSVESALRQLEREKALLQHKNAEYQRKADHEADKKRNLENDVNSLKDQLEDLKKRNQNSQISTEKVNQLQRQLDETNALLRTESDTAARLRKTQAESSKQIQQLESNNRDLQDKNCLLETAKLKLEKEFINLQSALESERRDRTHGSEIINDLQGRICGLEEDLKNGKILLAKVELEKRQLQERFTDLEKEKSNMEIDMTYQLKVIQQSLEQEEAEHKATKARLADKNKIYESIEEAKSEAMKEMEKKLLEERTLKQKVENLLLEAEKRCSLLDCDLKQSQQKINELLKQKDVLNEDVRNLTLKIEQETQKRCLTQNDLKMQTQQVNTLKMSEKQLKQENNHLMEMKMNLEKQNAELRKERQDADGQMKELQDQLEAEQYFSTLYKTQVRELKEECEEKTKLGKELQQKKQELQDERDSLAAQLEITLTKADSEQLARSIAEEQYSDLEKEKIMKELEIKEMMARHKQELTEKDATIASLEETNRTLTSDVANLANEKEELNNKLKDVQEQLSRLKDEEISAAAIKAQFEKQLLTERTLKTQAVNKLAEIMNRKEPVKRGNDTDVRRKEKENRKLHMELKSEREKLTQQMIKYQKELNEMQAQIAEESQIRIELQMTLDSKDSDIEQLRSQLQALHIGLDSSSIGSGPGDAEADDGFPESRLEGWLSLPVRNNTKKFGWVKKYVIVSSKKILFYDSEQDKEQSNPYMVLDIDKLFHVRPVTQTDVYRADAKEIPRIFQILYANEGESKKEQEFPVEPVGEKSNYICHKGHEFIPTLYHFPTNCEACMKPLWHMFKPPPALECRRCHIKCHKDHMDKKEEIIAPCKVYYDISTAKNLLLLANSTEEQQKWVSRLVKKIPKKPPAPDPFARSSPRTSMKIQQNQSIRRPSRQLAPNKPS

Sample 1
SMILES: C=C(CN)COc1cccc(Cn2c(=S)[nH]c(=O)c3[nH]cnc32)c1
Measurement: inhibition
MPO: Myeloperoxidase (MPO, Homo sapiens, UniProt P05164)
Sequence of UniProt P05164 (whole entry, looked up): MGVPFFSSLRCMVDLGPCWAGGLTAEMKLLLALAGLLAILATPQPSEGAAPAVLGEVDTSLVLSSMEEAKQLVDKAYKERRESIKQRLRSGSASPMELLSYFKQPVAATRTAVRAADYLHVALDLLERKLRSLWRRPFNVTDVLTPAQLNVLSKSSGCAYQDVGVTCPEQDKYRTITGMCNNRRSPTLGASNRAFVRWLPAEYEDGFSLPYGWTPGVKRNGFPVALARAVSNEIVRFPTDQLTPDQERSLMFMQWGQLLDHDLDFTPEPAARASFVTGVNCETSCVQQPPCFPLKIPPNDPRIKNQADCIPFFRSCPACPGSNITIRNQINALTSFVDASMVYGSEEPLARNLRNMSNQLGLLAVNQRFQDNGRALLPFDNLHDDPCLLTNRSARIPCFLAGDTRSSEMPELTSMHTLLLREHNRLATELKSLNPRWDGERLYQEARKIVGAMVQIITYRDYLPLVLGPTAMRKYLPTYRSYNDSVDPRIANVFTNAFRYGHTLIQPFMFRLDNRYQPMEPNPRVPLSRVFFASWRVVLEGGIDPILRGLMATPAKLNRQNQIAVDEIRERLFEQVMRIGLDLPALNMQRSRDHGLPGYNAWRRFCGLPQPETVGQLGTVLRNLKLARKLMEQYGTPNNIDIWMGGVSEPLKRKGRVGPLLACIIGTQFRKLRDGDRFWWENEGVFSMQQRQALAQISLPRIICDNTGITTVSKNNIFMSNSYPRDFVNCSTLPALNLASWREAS
AOC3: Amine oxidase [copper-containing] 3 (AOC3, Homo sapiens, UniProt Q16853)
Sequence of UniProt Q16853 (whole entry, looked up): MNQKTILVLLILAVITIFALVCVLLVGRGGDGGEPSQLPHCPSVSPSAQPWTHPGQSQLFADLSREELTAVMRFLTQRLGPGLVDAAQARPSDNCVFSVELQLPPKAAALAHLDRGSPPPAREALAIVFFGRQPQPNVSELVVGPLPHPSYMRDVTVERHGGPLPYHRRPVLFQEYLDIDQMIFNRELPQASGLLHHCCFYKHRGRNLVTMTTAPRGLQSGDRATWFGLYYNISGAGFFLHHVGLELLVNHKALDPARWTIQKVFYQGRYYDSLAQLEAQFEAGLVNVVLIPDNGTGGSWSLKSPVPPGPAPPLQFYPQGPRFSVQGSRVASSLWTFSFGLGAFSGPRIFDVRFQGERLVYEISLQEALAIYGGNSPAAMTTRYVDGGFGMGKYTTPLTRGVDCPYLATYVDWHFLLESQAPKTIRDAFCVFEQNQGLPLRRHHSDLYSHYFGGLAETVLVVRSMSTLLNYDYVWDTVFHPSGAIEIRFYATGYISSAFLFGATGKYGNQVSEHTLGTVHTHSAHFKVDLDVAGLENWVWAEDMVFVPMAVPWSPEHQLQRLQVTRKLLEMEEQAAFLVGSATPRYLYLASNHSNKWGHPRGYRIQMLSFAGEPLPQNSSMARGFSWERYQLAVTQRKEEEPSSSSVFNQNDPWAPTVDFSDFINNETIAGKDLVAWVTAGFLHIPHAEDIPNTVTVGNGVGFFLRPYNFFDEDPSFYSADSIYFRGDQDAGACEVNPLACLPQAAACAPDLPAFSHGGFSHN
MPO; enzyme activity; 0.0005 µM: -4.42% and 8.91% and 1.04%
MPO; enzyme activity; 0.3704 µM: 98.8% and 98.3%
AOC3; enzyme activity, Amplex Red H2O2 production; 0.3704 µM, mean value: 22%
AOC3; H2O2 production, inhibitor, Amplex Red; 10 µM: 86 % Inhibition
MPO; enzyme activity; 1.111 µM: 99.3% and 99.5%
AOC3; enzyme activity, Amplex Red H2O2 production; 10 µM, mean value: 89.8%
MPO; enzyme activity, inhibitor, fluorescence; 1 µM: 99.3%
AOC3; H2O2 production, inhibitor, Amplex Red; 0.1235 µM: 20.8 % Inhibition and 0.653 % Inhibition
AOC3; enzyme activity, Amplex Red H2O2 production; 3.333 µM, mean value: 75.7%

Sample 2
SMILES: CCC1(c2cccc(-c3cn(C)nc3C)c2)C2=C(Nc3n[nH]cc31)C(F)C(C)(C)CC2=O (single isomer, unassigned)
Tested at: 1 µM
Measurement: remaining binding
STK3 (Homo sapiens, UniProt Q13188); kinase binding, KINOMEscan; reference: DMSO control: 96%
CDK13 (Homo sapiens, UniProt Q14004); binding, competition with immobilised ligand: 75%
MAPK11 (Homo sapiens, UniProt Q15759); kinase binding, KINOMEscan; reference: DMSO control: 100%
TSSK3 (Homo sapiens, UniProt Q96PN8); kinase binding, KINOMEscan; reference: DMSO control: 100%
CSNK1A1 (Homo sapiens, UniProt P48729); kinase binding, KINOMEscan; reference: DMSO control: 100%
TTK (Homo sapiens, UniProt P33981); binding, competition with immobilised ligand: 100%
PRKCH (Homo sapiens, UniProt P24723); kinase binding, KINOMEscan; reference: DMSO control: 100%
MAP3K20 (Homo sapiens, UniProt Q9NYL2); binding, competition with immobilised ligand: 100%
NTRK2 (Homo sapiens, UniProt Q16620); binding, competition with immobilised ligand: 99%
PIK3CG (Homo sapiens, UniProt P48736); binding, competition with immobilised ligand: 100%
ROCK2 (Homo sapiens, UniProt O75116); kinase binding, KINOMEscan; reference: DMSO control: 76%
PRKCQ (Homo sapiens, UniProt Q04759); kinase binding, KINOMEscan; reference: DMSO control: 73%
CDKL3 (Homo sapiens, UniProt Q8IVW4); binding, competition with immobilised ligand: 100%
FLT3 (Homo sapiens, UniProt P36888, N841I); binding, competition with immobilised ligand: 100%
MAPK9 (Homo sapiens, UniProt P45984); kinase binding, KINOMEscan; reference: DMSO control: 100%
STK38 (Homo sapiens, UniProt Q15208); kinase binding, KINOMEscan; reference: DMSO control: 94%
PIK3CA (Homo sapiens, UniProt P42336, E542K); kinase binding, KINOMEscan; reference: DMSO control: 57%
FES (Homo sapiens, UniProt P07332); binding, competition with immobilised ligand: 100%
EPHB2 (Homo sapiens, UniProt P29323); kinase binding, KINOMEscan; reference: DMSO control: 100%

Sample 3
Target: Sodium-dependent neutral amino acid transporter B(0)AT1 (SLC6A19, Homo sapiens, UniProt Q695T7)
Sequence of UniProt Q695T7 (whole entry, looked up): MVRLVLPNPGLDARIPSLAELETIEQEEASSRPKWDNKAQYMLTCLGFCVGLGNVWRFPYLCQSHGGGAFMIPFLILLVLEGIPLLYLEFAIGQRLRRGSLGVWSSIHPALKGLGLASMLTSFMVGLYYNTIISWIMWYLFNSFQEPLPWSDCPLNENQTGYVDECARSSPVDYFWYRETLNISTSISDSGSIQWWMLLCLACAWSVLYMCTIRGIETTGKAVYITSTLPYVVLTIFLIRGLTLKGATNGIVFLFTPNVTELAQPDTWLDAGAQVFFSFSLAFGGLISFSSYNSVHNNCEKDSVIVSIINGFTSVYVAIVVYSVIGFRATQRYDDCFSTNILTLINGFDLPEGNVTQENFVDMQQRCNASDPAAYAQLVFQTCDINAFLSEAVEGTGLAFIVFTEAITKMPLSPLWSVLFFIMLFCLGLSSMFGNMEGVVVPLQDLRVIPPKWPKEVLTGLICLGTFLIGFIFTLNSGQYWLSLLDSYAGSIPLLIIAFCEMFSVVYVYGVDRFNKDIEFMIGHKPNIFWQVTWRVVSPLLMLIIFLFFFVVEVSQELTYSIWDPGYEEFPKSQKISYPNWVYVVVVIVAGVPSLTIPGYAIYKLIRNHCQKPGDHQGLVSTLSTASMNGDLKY
Method: FLIPR membrane potential
Cell line: CHO-BC
Tested at: concentration not given
Reference: background subtracted
Measurement: remaining activity
CCCNC(=O)COc1cc(C)c(Cl)c(C)c1: 10.6%
Cc1cc(OCC(=O)NC(C)C)cc(C)c1Br: 11.4%
CC(C)NC(=O)CSc1ccc(Cl)cc1: 10.5%
COc1ccc(SCC(=O)NC(C)C)cc1: 79.6%
Cc1cc(OCC(=O)NC(C)C)ccc1I: -3.23%
Cc1cc(NCC(=O)NC(C)C)cc(C)c1Br: -2.02%
CC(C)NC(=O)COc1ccc(Br)cc1: 21.3%
CC(C)NC(=O)CSc1ccc([N+](=O)[O-])cc1: 38.6%
Cc1cc(NCC(=O)NC(C)C)cc(C)c1Cl: -1.72%
Cc1cc(OCC(=O)NC(C)C)cc(C)c1I: 4.9%

Sample 4
Structure (SMILES): C[C@@H]1CN(c2ccc(-c3cc(C(=O)NCCOCCOCCOCCOCCNC(=O)/C=C/c4[nH]cc(C(=O)N[C@@H](CC(N)=O)c5ccc(F)c(Cl)c5)c4-c4ccc(Cl)cc4F)ccc3F)cc2NC(=O)c2c[nH]c(=O)cc2C(F)(F)F)C[C@H](C)N1C
Observed: thermal unfolding
Method: differential scanning fluorimetry
Tested at: 5.5 µM
Reading: higher = more unfolded
Measurement: SYPRO Orange fluorescence
WDR5: WD repeat-containing protein 5 (WDR5, Homo sapiens, UniProt P61964)
DCAF1: DDB1- and CUL4-associated factor 1 (DCAF1, Homo sapiens, UniProt Q9Y4B6)
Sequence of UniProt Q9Y4B6 (whole entry, looked up): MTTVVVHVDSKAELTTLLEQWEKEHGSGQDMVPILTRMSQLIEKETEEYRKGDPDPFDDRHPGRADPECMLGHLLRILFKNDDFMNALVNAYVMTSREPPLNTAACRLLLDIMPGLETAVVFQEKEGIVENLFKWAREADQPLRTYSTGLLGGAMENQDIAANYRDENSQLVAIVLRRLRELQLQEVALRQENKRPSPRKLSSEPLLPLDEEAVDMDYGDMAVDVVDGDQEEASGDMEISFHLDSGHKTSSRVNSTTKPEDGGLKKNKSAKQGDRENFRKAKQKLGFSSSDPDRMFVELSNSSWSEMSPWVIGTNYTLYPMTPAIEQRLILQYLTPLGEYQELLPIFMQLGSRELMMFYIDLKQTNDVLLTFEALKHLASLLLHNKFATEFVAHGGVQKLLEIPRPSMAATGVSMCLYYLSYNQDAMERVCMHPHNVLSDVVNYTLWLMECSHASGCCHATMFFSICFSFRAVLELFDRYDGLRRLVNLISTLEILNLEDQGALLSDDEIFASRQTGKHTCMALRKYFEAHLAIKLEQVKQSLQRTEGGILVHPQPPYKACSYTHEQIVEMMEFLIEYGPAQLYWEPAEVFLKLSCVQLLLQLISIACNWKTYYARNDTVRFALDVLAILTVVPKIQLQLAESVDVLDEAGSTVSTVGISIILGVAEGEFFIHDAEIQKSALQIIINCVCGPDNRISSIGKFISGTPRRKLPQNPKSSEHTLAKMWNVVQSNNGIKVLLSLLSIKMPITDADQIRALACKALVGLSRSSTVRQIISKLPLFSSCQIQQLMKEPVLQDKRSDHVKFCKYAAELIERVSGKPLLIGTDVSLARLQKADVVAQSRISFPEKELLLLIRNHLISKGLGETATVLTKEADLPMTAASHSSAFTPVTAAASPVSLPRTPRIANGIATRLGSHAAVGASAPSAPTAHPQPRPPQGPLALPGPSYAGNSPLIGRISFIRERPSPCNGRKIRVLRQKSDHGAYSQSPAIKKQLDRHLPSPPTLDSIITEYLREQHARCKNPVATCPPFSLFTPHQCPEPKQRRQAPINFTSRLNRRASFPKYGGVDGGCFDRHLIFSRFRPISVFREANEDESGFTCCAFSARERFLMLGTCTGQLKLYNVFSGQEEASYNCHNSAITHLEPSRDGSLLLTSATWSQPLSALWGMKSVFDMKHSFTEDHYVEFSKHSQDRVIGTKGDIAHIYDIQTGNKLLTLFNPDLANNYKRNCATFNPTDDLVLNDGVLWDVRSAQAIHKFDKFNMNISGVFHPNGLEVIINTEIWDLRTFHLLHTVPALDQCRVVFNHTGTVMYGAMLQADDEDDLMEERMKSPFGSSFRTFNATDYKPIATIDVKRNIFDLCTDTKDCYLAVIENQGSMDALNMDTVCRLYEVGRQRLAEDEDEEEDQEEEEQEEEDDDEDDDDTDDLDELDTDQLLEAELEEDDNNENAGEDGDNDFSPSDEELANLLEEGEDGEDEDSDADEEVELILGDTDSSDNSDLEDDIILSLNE
WDR5; 65.21 °C: 14000 a.u.
DCAF1; 80.61 °C: 44500 a.u.
DCAF1; 30.6 °C: 9570 a.u.
WDR5; 53.81 °C: 16700 a.u.
DCAF1; 48 °C: 14300 a.u.
DCAF1; 91.01 °C: 34000 a.u.
DCAF1; 42.4 °C: 12300 a.u.
DCAF1; 32.6 °C: 9760 a.u.
WDR5; 62.61 °C: 14600 a.u.
DCAF1; 38.8 °C: 11200 a.u.
WDR5; 31.8 °C: 12700 a.u.

Some of these lines once more (sample 4):
DCAF1; 91.01 °C: 34000 a.u.
DCAF1; 42.4 °C: 12300 a.u.
DCAF1; 32.6 °C: 9760 a.u.
WDR5; 62.61 °C: 14600 a.u.
